{"data": "Measurements of several laboratories", "chain of UniProt P37136 (whole entry, looked up)": "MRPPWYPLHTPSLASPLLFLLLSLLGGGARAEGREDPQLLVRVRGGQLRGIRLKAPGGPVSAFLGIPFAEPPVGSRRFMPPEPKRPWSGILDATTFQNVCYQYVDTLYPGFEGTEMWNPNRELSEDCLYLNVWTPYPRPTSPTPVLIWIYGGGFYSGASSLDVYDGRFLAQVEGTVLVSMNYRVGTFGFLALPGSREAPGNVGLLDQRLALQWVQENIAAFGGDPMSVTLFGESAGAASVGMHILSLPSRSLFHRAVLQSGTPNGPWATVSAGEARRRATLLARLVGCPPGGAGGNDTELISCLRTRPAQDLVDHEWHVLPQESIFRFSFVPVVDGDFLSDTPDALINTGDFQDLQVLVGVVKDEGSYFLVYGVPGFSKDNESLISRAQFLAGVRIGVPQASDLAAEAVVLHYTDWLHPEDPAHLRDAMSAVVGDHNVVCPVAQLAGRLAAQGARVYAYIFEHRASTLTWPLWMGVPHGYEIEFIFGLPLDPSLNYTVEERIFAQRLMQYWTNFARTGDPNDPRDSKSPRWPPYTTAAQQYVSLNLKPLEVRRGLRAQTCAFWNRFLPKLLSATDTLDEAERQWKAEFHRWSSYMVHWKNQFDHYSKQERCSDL"}
{"Substance": "deucravacitinib", "test system": "human", "conditions": "oral, 20 mg, single dose", "quantity": "apparent half-life", "result": "14.9 h"}
{"Substance": "phoxim-oxon", "target or system": "Ache (Rattus norvegicus, UniProt P37136)", "assay": "enzyme activity, inhibitor, Ellman", "test system": "rat, postnatal day 1, heart homogenate", "conditions": "15 min, 37 °C", "quantity": "IC50", "result": "15 nM"}
{"Substance": "semaglutide", "assay": "measured: possibly related to drug", "test system": "human, safety analysis set", "conditions": "concentration not given, 32 weeks, run-in", "quantity": "participants with adverse events", "result": "39.6%"}
{"Substance": "maraviroc", "test system": "white CYP3A5 poor metabolizers, plasma", "conditions": "300 mg twice daily", "quantity": "Tmax", "result": "2.01 h"}
{"Substance": "chicoric acid", "target or system": "IPEC-J2 monolayer", "conditions": "together with: thapsigargin 10 µM", "how to read": "reference: without inhibitor", "quantity": "Papp basolateral to apical", "result": "increased"}
{"note": "For quick reference, copied from above:"}
{"Substance": "chicoric acid", "target or system": "IPEC-J2 monolayer", "conditions": "together with: thapsigargin 10 µM", "how to read": "reference: without inhibitor", "quantity": "Papp basolateral to apical", "result": "increased"}
